# Earlier results as cited in several papers.
# Protocols differ between the studies behind these lines.
# Organism: Mycobacterium tuberculosis
SMILES,read-out,method,strain,concentration,MIC
O=C(NN1C(=O)c2c(F)c(F)c(F)c(F)c2C1=O)c1ccncc1,,,H37Rv,,1.15 µg/mL
CC(C)=CCC/C(C)=C/CNCCOC1C2CC3CC(C2)CC1C3 (centres unmarked),,,H37Rv,,0.035 µg/mL
Cc1cc(C)c2cc(C(=O)NC3CCCCC3)[nH]c2c1,,phenotypic screening,,,0.93 µM
c1ccc(-c2cc(N3CCCCC3)nc3nc(N4CCCCC4)ccc23)cc1,,,H37Rv,,6.25 µg/mL
Cc1cn2c(C(=O)NCc3ccc(C(F)(F)F)cc3)c(C)nc2s1,,,,,0.061 µM
C#CCN(Cc1ccc2nc(N)nc(N)c2c1)c1ccc(C(=O)N[C@@H](CCC(=O)O)C(=O)O)cc1,,,H37Rv,,~5 µM
O=C(O)c1c(=O)c2cc([N+](=O)[O-])c(N3CCC4(CC3)OCCO4)nc2n2c1sc1ccccc12,,,multidrug-resistant,,0.04 µM
O=C(Cn1cc(CN2C(=O)c3ccccc3C2=O)nn1)Nc1ccc(Br)cc1,,,,,12.5 µg/mL
C1CN(C2C3CC4CC(C3)CC2C4)CCN(C2C3CC4CC(C3)CC2C4)C1 (centres unmarked),,,,concentration not given,1.56 µM
Cc1ccc2nc(C)c(C(=O)NCc3cc(F)cc(F)c3)n2c1,,alamar blue fluorescence,H37Rv,,0.08 µM
CO[C@H]1[C@@H](O)[C@H](n2ccc(=O)[nH]c2=O)O[C@@H]1[C@@H](O[C@H]1OC(C(=O)N[C@H]2N=C(c3ccccc3)c3ccccc3NC2=O)=C[C@H](O)[C@@H]1O)C(N)=O,growth,,H37Rv,,2.5 µg/mL
